{"data": "Measurements collected from several papers", "note": "Every numbered part comes from another study and shows a few of its results, in no order. Values joined by “and” are separate records of one study, mostly repeats; a detail may differ. ± marks the error that the study gave.", "UniProt O60285, sequence (whole entry, looked up)": "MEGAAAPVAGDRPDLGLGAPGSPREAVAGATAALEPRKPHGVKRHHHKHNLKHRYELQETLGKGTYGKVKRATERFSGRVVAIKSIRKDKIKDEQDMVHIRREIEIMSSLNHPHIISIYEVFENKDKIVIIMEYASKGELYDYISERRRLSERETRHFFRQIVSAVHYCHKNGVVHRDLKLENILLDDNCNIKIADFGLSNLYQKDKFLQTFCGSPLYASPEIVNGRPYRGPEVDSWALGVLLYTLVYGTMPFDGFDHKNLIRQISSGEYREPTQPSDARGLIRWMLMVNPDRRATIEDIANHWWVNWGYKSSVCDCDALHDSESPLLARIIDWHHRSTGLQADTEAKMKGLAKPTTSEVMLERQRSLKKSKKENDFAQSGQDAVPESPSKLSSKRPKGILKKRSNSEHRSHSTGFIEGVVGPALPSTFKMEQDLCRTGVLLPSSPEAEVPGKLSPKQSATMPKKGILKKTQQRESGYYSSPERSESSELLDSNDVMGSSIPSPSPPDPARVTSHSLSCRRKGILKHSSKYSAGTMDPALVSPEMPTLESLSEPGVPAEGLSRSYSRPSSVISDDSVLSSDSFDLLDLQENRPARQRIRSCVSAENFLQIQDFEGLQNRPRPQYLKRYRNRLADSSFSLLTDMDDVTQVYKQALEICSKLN", "UniProt P47898, sequence (whole entry, looked up)": "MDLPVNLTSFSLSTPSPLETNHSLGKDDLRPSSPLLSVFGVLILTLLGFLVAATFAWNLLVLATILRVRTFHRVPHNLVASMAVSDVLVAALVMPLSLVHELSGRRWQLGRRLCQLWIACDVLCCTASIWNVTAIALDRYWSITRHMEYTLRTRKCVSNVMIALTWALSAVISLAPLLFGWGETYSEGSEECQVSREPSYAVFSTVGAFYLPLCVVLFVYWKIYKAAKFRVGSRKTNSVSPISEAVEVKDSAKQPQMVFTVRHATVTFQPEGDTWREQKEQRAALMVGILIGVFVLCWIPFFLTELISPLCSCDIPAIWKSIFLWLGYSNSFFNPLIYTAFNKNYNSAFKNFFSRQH", "UniProt P15056, sequence (whole entry, looked up)": "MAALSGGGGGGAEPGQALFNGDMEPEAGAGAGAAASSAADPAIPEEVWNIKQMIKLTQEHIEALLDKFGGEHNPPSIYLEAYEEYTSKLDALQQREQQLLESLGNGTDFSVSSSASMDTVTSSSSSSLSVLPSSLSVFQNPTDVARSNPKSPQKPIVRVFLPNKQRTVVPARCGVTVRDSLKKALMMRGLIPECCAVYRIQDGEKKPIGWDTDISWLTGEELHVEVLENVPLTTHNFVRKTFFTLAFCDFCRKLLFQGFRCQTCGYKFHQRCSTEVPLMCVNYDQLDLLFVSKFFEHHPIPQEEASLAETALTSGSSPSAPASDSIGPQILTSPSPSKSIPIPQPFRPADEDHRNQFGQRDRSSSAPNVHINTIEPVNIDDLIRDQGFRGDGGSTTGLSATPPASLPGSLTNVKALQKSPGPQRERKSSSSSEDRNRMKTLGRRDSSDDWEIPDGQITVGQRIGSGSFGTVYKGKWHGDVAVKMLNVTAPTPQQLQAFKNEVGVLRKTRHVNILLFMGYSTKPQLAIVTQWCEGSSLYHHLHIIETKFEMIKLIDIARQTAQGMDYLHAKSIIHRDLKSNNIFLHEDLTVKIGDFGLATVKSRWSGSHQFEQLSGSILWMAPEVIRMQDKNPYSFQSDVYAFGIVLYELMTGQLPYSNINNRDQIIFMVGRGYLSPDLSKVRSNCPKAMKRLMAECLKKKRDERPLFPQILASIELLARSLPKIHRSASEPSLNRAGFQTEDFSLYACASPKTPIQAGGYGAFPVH"}
{"data": "Series 1", "SMILES": "COc1cc(C(=O)N2CCC(N3CCN(C)CC3)CC2)ccc1Nc1ncc2c(n1)N(C)c1ccccc1C(=O)N2C"}
{"target": "MNK2", "effect on": "kinase activity", "concentration": "1 µM", "remaining activity [%]": "72 ± 2"}
{"target": "ERK1", "effect on": "kinase activity", "concentration": "1 µM", "remaining activity [%]": 105}
{"target": "PRAK", "effect on": "kinase activity", "concentration": "10 µM", "remaining activity [%]": "107 ± 3"}
{"target": "NUAK1 (Homo sapiens, UniProt O60285)", "concentration": "1 µM", "remaining activity [%]": "50 ± 3"}
{"target": "FGF-R1", "effect on": "kinase activity", "concentration": "10 µM", "remaining activity [%]": "60 ± 5"}
{"target": "PKA", "effect on": "kinase activity", "concentration": "10 µM", "remaining activity [%]": "93 ± 3"}
{"target": "p38d MAPK", "effect on": "kinase activity", "concentration": "10 µM", "remaining activity [%]": "106 ± 4"}
{"target": "BTK", "effect on": "kinase activity", "concentration": "10 µM", "remaining activity [%]": "75 ± 1"}
{"target": "p38a MAPK", "effect on": "kinase activity", "concentration": "10 µM", "remaining activity [%]": "96 ± 9"}
{"target": "DCLK1", "effect on": "kinase activity", "method": "KiNativ profiling", "concentration": "1 µM", "remaining activity [%]": 22}
{"target": "MAPKAP-K2", "effect on": "kinase activity", "concentration": "1 µM", "remaining activity [%]": "86 ± 1"}
{"target": "MARK4", "effect on": "kinase activity", "concentration": "10 µM", "remaining activity [%]": "87 ± 8"}
{"target": "CHK2", "effect on": "kinase activity", "concentration": "1 µM", "remaining activity [%]": "38 ± 9"}
{"data": "Series 2", "Structure (SMILES)": "Cc1cc2c(C(N)=O)c(N)n(-c3c(C)ccc(O)c3C)c2nc1C", "SRC": "Proto-oncogene tyrosine-protein kinase Src (SRC, Homo sapiens, UniProt P12931)"}
{"target or system": "NCI-H1568", "effect on": "cell growth", "concentration": "1111.11 nM", "inhibition": "42.7%"}
{"target or system": "SRC", "effect on": "enzyme activity", "action": "inhibitor", "method": "TR-FRET", "concentration": "0.1235 µM", "inhibition": "92.4%"}
{"target or system": "NCI-H1568", "effect on": "cell growth", "concentration": "4.572 nM", "inhibition": "7.87%"}
{"target or system": "SRC", "effect on": "kinase activity", "action": "inhibitor", "method": "HTRF", "concentration": "0.3704 µM", "inhibition": "96.4%"}
{"target or system": "MKN-1", "effect on": "cell proliferation", "concentration": "3333.33 nM", "inhibition": "99.7%"}
{"target or system": "BRAF (Homo sapiens, UniProt P15056)", "effect on": "kinase activity", "method": "ADP-Glo", "concentration": "10 µM", "inhibition": "99.7%"}
{"target or system": "KLE", "effect on": "cell proliferation", "concentration": "4.572 nM", "inhibition": "1.98% and -2.23% and -3.88%"}
{"target or system": "RKO", "effect on": "cell proliferation", "concentration": "1.524 nM", "inhibition": "-1.71% and 6.69%"}
{"target or system": "SRC", "effect on": "enzyme activity", "action": "inhibitor", "method": "TR-FRET", "concentration": "13.72 nM", "inhibition": "67.5%"}
{"target or system": "NCI-H1568", "effect on": "cell growth", "concentration": "123.5 nM", "inhibition": "14.5%"}
{"target or system": "RKO", "effect on": "cell proliferation", "concentration": "370.37 nM", "inhibition": "-0.26% and 7.73%"}
{"target or system": "HCC1569", "effect on": "cell proliferation", "concentration": "1111.11 nM", "inhibition": "94.1%"}
{"target or system": "U-251 MG", "effect on": "cell growth", "concentration": "10000 nM", "inhibition": "97.4%"}
{"target or system": "KLE", "effect on": "cell proliferation", "concentration": "10000 nM", "inhibition": "96.4%"}
{"data": "Series 3", "target": "Platelet-derived growth factor receptor beta (PDGFRB, Homo sapiens, UniProt P09619)", "effect on": "enzyme activity", "action": "inhibitor", "concentration": "0.5 µM", "reference": "control", "UniProt P09619, sequence (whole entry, looked up)": "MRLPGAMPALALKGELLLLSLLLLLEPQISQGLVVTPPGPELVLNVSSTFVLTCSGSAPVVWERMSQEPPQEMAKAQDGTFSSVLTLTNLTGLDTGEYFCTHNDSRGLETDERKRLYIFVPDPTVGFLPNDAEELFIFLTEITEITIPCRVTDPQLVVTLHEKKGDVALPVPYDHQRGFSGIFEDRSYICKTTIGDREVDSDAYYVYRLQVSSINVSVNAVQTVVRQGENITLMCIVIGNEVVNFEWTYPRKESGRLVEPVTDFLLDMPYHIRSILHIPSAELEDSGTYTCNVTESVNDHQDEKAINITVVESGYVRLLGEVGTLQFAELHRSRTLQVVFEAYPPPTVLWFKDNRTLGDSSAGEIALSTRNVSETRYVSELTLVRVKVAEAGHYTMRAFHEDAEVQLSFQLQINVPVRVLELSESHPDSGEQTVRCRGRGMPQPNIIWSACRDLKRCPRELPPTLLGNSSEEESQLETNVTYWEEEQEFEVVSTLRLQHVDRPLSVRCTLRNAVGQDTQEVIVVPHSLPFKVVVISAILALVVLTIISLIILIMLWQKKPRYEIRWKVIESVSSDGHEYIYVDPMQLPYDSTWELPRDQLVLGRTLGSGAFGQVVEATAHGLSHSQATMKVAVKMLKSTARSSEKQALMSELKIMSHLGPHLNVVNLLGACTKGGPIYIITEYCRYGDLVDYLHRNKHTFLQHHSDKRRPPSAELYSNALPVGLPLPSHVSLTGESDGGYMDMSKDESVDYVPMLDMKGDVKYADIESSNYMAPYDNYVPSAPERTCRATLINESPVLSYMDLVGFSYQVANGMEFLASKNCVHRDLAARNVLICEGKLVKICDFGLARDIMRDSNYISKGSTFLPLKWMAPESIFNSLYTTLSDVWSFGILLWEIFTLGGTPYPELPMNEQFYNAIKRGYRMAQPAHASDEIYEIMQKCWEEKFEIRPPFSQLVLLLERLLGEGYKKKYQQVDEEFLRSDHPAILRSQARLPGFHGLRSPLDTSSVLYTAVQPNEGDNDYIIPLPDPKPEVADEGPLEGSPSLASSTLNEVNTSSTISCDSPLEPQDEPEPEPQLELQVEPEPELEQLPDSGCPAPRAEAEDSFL"}
{"Structure (SMILES)": "CCCCc1c(-c2ccc(OC)cc2)[nH]c2nccnc12", "remaining activity [%]": 95.9}
{"Structure (SMILES)": "COc1cccc(-c2cc(=O)c3ccccc3o2)c1N", "remaining activity [%]": 99.4}
{"Structure (SMILES)": "Cc1cc(Nc2cc(N3CCN(C)CC3)nc(Sc3ccc(NC(=O)C4CC4)cc3)n2)[nH]n1", "remaining activity [%]": 71.5}
{"Structure (SMILES)": "CN1CCN(c2ccc3nc(-c4c(N)c5c(F)cccc5[nH]c4=O)[nH]c3c2)CC1", "remaining activity [%]": 17.2}
{"Structure (SMILES)": "c1ccc2c(-c3ccncc3)c[nH]c2c1", "remaining activity [%]": 105}
{"Structure (SMILES)": "O=C1Nc2ccc(Br)cc2/C1=C/c1cc2c([nH]1)CCCC2", "remaining activity [%]": 58.8}
{"Structure (SMILES)": "O=C(c1cc2cc(O)ccc2[nH]1)c1cc2cc(O)ccc2[nH]1", "remaining activity [%]": 41.7}
{"Structure (SMILES)": "N#Cc1cnc2cnc(NCc3cccnc3)cc2c1Nc1ccc(F)c(Cl)c1", "remaining activity [%]": 101}
{"Structure (SMILES)": "O=C1Cc2c([nH]c3ccc(Br)cc23)-c2ccccc2N1", "remaining activity [%]": 93.2}
{"Structure (SMILES)": "O=Nc1c(-c2c(O)[nH]c3cc(Br)ccc23)[nH]c2ccccc12", "remaining activity [%]": 35.2}
{"Structure (SMILES)": "O=C1NC(=O)c2c1c1c3ccccc3[nH]c1c1[nH]c3cc(Br)ccc3c21", "remaining activity [%]": 82.6}
{"Structure (SMILES)": "O=c1cc(N2CCOCC2)oc2c(-c3ccccc3)cccc12", "remaining activity [%]": 102}
{"Structure (SMILES)": "COc1ccc(COc2ccc(Cc3cnc(N)nc3N)cc2OC)cc1", "remaining activity [%]": 98.2}
{"Structure (SMILES)": "COc1ccc2c(c1)c(C1=C(c3c[nH]c4ccccc34)C(=O)NC1=O)cn2CCCN(C)C", "remaining activity [%]": 75.8}
{"Structure (SMILES)": "O=C1NC(=O)c2c1c1c3ccccc3[nH]c1n1cncc21", "remaining activity [%]": 68.4}
{"Structure (SMILES)": "O=C1Nc2ccccc2/C1=C\\c1c(Cl)[nH]c2ccccc12", "remaining activity [%]": 102}
{"Structure (SMILES)": "CN(C)S(=O)(=O)c1ccc2c(c1)/C(=C/c1cc3c([nH]1)CCCC3)C(=O)N2", "remaining activity [%]": 96.5}
{"Structure (SMILES)": "Cc1ccc(S(=O)(=O)/C=C/C#N)cc1", "remaining activity [%]": 103}
{"data": "Mixed results"}
{"SMILES": "C[C@H](c1cccc(C#N)c1)n1cc(Cl)cc(C(N)=O)c1=N", "target": "5-hydroxytryptamine receptor 5A (HTR5A, Homo sapiens, UniProt P47898)", "effect on": "ligand displacement", "concentration": "10 µM", "measurement": "inhibition", "result": "-5.97%"}
{"note": "Excerpt of the above (series 3):"}
{"Structure (SMILES)": "O=C1Cc2c([nH]c3ccc(Br)cc23)-c2ccccc2N1", "remaining activity [%]": 93.2}
{"Structure (SMILES)": "O=C1NC(=O)c2c1c1c3ccccc3[nH]c1c1[nH]c3cc(Br)ccc3c21", "remaining activity [%]": 82.6}
{"Structure (SMILES)": "O=C(c1cc2cc(O)ccc2[nH]1)c1cc2cc(O)ccc2[nH]1", "remaining activity [%]": 41.7}
{"Structure (SMILES)": "O=c1cc(N2CCOCC2)oc2c(-c3ccccc3)cccc12", "remaining activity [%]": 102}
{"Structure (SMILES)": "O=C1Nc2ccc(Br)cc2/C1=C/c1cc2c([nH]1)CCCC2", "remaining activity [%]": 58.8}
